Assay results of several laboratories.
Every numbered part comes from another study and shows a few of its results, in no order. Positions count from the first letter of the parent shown.

Sample 1 — target: CCNA2, cyclin fold, Cln2 fusion (human); method: yeast growth competition, sequencing; medium: yeast; setting: strong parent motif; relative to: not given; direction: higher = stronger binding
Parent: GMNC docking peptide (human); KNAKRNLSSEFAN; partner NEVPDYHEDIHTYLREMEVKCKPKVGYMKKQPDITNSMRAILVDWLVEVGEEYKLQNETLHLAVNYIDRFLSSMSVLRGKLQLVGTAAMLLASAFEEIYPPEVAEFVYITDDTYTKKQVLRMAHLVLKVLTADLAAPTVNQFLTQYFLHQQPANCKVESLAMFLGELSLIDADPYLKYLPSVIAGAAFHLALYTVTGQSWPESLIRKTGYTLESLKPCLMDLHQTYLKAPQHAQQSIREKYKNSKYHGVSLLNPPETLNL
`K4H` — result for “normalised enrichment score”: 2.66.
`A3E`: “normalised enrichment score” 0.553.
For `E10F`, “normalised enrichment score” read 2.22.
`A12Y`: “normalised enrichment score” 4.52.
Under “normalised enrichment score”, `A3W` is recorded as 4.64.
`N2Q` — result for “normalised enrichment score”: 5.12.
`A3M`: “normalised enrichment score” 1.85.
`N2M`: “normalised enrichment score” 4.55.
Under “normalised enrichment score”, `L7A` is recorded as 0.743.

Sample 2 — method: DHFR PCA, deep sequencing; medium: yeast; with: (+)-ABA 0.39 µM; relative to: wild-type fitted maximum; direction: higher = stronger binding
Target: ABI1, truncated, D143A, DHFR fusion (Arabidopsis thaliana)
Setting: methotrexate growth selection, single substitutions
Parent: PYL1, truncated, DHFR fusion (Arabidopsis thaliana); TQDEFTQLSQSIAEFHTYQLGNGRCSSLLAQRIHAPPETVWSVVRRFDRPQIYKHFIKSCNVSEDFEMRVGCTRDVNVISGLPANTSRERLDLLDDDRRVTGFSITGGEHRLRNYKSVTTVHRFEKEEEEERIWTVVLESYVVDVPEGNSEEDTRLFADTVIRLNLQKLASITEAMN
For `F47N`, “relative binding score” read -15%.
Under “relative binding score”, `N61Q` is recorded as 60.6%.
`K126P` — result for “relative binding score”: 71.6%.
Under “relative binding score”, `V78A` is recorded as 8.68%.
`F56M` — result for “relative binding score”: -2.9%.
Under “relative binding score”, `Y141V` is recorded as -12.7%.

Sample 3 — method: universal PBM; form: double-stranded DNA, one strand shown; medium: in vitro; concentration: 600 nM; direction: higher = stronger binding
Target: Sal-like protein 4, full length isoform A (SALL4, Homo sapiens, UniProt Q9UJQ4, residues 1-1053)
UniProt Q9UJQ4, sequence (whole entry, looked up): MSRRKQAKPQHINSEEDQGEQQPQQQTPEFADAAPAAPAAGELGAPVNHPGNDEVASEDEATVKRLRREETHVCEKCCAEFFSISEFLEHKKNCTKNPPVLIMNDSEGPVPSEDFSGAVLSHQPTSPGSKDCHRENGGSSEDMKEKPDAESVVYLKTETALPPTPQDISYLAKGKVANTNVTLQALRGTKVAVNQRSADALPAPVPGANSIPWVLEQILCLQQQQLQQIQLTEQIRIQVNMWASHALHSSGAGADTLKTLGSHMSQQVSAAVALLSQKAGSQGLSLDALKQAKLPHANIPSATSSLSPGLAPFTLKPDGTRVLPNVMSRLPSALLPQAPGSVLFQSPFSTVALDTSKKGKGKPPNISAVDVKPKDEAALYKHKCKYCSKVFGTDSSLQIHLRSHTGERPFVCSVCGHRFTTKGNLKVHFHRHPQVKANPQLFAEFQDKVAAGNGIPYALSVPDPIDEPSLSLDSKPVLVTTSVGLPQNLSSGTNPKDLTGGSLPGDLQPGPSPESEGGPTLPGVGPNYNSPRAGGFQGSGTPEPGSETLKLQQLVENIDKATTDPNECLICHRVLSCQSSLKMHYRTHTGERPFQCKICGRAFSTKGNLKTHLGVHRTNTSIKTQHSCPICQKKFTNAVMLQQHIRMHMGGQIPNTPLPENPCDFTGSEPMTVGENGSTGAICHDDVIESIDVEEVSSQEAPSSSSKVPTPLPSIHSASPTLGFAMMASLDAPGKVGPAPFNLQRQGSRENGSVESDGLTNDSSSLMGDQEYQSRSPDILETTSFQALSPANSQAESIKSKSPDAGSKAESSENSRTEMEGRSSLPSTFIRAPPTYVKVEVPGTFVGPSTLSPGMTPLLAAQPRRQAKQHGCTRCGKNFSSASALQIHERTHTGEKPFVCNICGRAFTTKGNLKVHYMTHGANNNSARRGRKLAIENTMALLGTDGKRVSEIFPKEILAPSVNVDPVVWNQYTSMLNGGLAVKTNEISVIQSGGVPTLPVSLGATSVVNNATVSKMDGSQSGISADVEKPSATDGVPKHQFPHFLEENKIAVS
Setting: 8-mer, flanks averaged, mean of replicates
`AAACTTCT` has an E-score of 0.197.
`ACGACCCA` gave an E-score of -0.142.
For `ATAGACTA`, the E-score was 0.222.
`ATCTTGCC` has an E-score of -0.0128.
The E-score of `AAATCCCC` is reported as -0.182.
`CCGTCTCA` has an E-score of -0.151.
`TCTATCAA` has an E-score of 0.217.

Other studies, line by line
`PhoQ, residues 284 288 289 292 302 303 NSMLDC` gave a fold induction of 2.93 (PhoP, residues 12 14 15 18 19 AWHSL (Escherichia coli, UniProt P23836); Sort-seq, item: YFP reporter; E. coli; PhoQ-PhoP variant library, with: 10 µM Mg2+; relative to: high Mg2+ state, higher = stronger signaling).

Excerpt of the above (sample 1):
For `E10F`, “normalised enrichment score” read 2.22.
`A3M`: “normalised enrichment score” 1.85.
`A3E`: “normalised enrichment score” 0.553.
